Published values pooled from the literature.
Every numbered part comes from another study and shows a few of its results, in no order. “And” joins repeats or separate records; there may be more than shown.
Chain of UniProt P41240 (whole entry, looked up): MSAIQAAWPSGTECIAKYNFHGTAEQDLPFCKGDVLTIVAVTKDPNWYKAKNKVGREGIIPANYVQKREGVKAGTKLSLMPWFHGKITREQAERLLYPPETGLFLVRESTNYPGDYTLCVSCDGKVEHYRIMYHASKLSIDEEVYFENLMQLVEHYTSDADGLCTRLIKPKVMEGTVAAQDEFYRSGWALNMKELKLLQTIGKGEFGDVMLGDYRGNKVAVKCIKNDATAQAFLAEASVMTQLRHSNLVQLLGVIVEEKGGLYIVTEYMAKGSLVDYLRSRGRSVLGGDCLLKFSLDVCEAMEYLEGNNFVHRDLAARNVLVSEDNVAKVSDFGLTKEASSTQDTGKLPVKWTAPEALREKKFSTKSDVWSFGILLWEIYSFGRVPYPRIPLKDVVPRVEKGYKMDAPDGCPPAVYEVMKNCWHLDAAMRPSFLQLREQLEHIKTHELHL
Chain of UniProt Q15746 (whole entry, looked up): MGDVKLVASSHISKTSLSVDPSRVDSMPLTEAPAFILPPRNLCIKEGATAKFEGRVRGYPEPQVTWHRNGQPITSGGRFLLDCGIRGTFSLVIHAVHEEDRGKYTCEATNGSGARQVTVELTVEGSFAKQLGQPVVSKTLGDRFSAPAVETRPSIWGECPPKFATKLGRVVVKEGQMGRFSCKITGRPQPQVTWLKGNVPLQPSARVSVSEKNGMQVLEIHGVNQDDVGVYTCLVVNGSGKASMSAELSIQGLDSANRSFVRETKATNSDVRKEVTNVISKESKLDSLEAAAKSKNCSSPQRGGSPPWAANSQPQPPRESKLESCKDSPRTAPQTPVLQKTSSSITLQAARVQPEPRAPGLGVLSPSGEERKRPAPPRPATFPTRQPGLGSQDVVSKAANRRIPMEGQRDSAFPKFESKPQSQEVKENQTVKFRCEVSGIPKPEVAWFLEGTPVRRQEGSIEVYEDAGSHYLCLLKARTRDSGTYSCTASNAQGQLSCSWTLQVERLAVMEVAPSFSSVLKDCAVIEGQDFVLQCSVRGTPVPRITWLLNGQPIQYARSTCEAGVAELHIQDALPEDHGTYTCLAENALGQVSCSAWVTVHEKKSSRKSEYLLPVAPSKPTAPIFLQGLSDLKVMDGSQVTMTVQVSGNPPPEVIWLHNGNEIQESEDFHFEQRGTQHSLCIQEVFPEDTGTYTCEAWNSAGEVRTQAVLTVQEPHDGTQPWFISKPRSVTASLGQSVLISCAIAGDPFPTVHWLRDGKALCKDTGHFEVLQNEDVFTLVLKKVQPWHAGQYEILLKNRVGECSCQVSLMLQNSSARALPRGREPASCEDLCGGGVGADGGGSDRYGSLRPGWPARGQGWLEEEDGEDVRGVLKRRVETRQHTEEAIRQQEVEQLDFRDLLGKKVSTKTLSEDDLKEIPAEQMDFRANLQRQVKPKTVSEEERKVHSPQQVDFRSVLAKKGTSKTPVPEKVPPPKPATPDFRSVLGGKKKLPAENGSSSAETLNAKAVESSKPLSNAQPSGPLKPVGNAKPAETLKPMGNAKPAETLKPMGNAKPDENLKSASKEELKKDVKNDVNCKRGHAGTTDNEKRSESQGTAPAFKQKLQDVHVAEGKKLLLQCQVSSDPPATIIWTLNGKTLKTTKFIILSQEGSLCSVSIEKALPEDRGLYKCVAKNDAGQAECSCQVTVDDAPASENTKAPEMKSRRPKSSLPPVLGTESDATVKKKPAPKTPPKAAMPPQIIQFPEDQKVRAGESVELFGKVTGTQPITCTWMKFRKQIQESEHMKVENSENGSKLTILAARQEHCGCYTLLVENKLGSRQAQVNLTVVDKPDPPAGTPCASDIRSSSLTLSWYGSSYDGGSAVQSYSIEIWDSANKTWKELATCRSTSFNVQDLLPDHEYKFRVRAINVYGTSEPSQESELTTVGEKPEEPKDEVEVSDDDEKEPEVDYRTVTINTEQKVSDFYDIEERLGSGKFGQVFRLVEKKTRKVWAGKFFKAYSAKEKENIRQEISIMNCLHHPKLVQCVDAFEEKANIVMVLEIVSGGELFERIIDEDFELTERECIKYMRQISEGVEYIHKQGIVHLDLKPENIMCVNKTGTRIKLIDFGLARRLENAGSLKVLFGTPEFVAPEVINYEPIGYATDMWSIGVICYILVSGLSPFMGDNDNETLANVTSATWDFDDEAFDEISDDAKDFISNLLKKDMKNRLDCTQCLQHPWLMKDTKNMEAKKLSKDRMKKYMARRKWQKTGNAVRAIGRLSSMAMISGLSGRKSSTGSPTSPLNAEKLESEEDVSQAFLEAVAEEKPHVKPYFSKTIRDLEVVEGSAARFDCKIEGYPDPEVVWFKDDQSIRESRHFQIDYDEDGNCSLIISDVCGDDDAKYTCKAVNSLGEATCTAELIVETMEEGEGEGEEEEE
Chain of UniProt P25098 (whole entry, looked up): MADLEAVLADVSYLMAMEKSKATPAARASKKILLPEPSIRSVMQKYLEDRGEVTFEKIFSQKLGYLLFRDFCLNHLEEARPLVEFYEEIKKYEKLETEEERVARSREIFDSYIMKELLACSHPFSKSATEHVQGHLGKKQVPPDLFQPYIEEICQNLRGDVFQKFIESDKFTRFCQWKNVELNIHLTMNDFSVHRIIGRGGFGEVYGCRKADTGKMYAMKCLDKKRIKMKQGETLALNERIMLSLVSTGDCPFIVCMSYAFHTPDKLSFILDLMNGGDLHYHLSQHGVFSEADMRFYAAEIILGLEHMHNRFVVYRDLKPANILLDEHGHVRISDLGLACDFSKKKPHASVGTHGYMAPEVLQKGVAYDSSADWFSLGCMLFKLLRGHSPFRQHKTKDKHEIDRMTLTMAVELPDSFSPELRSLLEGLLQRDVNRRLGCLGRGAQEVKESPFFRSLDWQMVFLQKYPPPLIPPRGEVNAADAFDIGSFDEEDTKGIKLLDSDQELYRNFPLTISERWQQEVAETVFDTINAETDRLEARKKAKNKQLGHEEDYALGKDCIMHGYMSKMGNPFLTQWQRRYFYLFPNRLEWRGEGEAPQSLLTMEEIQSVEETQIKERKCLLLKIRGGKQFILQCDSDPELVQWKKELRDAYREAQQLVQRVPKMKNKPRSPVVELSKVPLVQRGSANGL

Set 1
SMILES: CCCCC[C@@H](O)CC(=O)N[C@@H]1C(=O)N[C@H](CCCNC(=N)N)C(=O)N[C@@H](CO)C(=O)NCC(=O)N(C)[C@H](Cc2ccccc2)C(=O)N[C@@H](CC(C)C)C(=O)N[C@H](CCCNC(=N)N)C(=O)N[C@@H](CO)C(=O)N[C@H]([C@H](C)O)C(=O)N[C@H](Cc2c[nH]c3ccccc23)C(=O)N[C@@H]([C@@H](C)CC)C(=O)NCC(=O)O[C@@H]1C
Organism: Staphylococcus aureus
Strain: USA300
Concentration: 2 x MIC
conditions	viable cells
15 min	3500 CFU/mL and 3300 CFU/mL and 3900 CFU/mL
60 min	1400 CFU/mL and 800 CFU/mL and 1500 CFU/mL
0 min	4.4e+08 CFU/mL and 4e+08 CFU/mL and 3.9e+08 CFU/mL
360 min	300 CFU/mL and 400 CFU/mL and 500 CFU/mL

Set 2
Target: Eukaryotic initiation factor 4A-I (EIF4A1, Homo sapiens, UniProt P60842)
Chain of UniProt P60842 (whole entry, looked up): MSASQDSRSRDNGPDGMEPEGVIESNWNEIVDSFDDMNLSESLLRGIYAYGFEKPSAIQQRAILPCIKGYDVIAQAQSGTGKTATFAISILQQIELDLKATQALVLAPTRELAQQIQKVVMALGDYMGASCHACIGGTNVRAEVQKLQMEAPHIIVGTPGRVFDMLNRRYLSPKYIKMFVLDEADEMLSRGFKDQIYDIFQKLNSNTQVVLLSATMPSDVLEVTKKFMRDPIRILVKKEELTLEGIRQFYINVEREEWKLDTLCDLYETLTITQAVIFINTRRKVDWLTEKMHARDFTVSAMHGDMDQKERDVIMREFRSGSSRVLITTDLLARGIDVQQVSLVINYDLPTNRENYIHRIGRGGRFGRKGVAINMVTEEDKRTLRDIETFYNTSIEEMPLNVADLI
Effect on: RNA clamping
Technique: fluorescence polarization
Concentration: concentration not given
Together with: FAM-labelled poly r(AG)8 RNA
Direction: higher = more clamping
Compound	fluorescence polarization change
COCC1=N[C@@]2(O)[C@H](C(=O)OC)[C@@H](c3ccccc3)[C@]3(c4ccc(OC)cc4)Oc4cc(OC)cc(OC)c4[C@]23N1	71.7 mP and 58.7 mP
COc1ccc([C@@]23Oc4cc(OC)cc(OC)c4[C@]2(O)c2nc(Cc4ccccc4)[nH]c(=O)c2[C@H]3c2ccccc2)cc1	33.2 mP
COc1ccc([C@@]23Oc4cc(OC)cc(OC)c4[C@]2(O)c2nc(-c4cccc(C)c4)[nH]c(=O)c2[C@H]3c2ccccc2)cc1	9.9 mP
COc1ccc([C@@]23Oc4cc(OC)cc(OC)c4[C@]2(O)c2nc(-c4ccc(F)cc4)[nH]c(=O)c2[C@H]3c2ccccc2)cc1	21.2 mP
COC(=O)[C@@H]1[C@@H](c2ccccc2)[C@@]2(c3ccc(Br)cc3)C(=O)[C@]1(O)c1c(OC)cc(OC)cc1N2C	7.9 mP
COc1cc(F)cc2c1[C@]1(O)[C@H](O)[C@H](/C(N)=N/O)[C@@H](c3ccccc3)[C@]1(c1ccc(Br)cc1)O2	60.6 mP
COC(=O)[C@@H]1[C@@H](c2ccccc2)[C@@]2(c3ccc(OC)cc3)C(=O)[C@]1(O)c1ccccc1N2C	-2.2 mP and 9.5 mP
COC(=O)[C@H]1[C@H](c2ccccc2)[C@@]2(c3ccc(OC)cc3)Oc3cc(OC)cc(OC)c3[C@]1(O)[C@H]2O	-2.2 mP

Set 3
Compound: COC[C@H]1OC(=O)c2coc3c2[C@@]1(C)C1=C(C3=O)[C@@H]2CCC(=O)[C@@]2(C)C[C@H]1OC(C)=O
Effect on: enzyme activity
Action: inhibitor
Concentration: 0.5 µM
Baseline: control
target	remaining activity
Glycogen synthase kinase-3 alpha (GSK3A, Homo sapiens, UniProt P49840)	92.8%
NUAK family SNF1-like kinase 1 (NUAK1, Homo sapiens, UniProt O60285)	95%
Ribosomal protein S6 kinase alpha-1 (RPS6KA1, Homo sapiens, UniProt Q15418)	91.3%
Receptor-type tyrosine-protein kinase FLT3 (FLT3, Homo sapiens, UniProt P36888)	93.4%
Serine/threonine-protein kinase pim-2 (PIM2, Homo sapiens, UniProt Q9P1W9)	60.6%
Beta-adrenergic receptor kinase 1 (GRK2, Homo sapiens, UniProt P25098)	98.3%
Protein kinase C epsilon type (PRKCE, Homo sapiens, UniProt Q02156)	86.5%
Protein kinase C gamma type (PRKCG, Homo sapiens, UniProt P05129)	114%
Ephrin type-A receptor 7 (EPHA7, Homo sapiens, UniProt Q15375)	89.4%
Serine/threonine-protein kinase PAK 2 (PAK2, Homo sapiens, UniProt Q13177)	86.5%
Cytoplasmic tyrosine-protein kinase BMX (BMX, Homo sapiens, UniProt P51813)	92.3%
Ephrin type-B receptor 2 (EPHB2, Homo sapiens, UniProt P29323)	102%
G protein-coupled receptor kinase 6 (GRK6, Homo sapiens, UniProt P43250)	101%
Serine/threonine-protein kinase Sgk1 (SGK1, Homo sapiens, UniProt O00141)	101%
SRSF protein kinase 3 (SRPK3, Homo sapiens, UniProt Q9UPE1)	95.3%
Tyrosine-protein kinase CSK (CSK, Homo sapiens, UniProt P41240)	101%
Fibroblast growth factor receptor 4 (FGFR4, Homo sapiens, UniProt P22455)	88.9%
Myosin light chain kinase, smooth muscle (MYLK, Homo sapiens, UniProt Q15746)	29.5%
Aurora kinase C (AURKC, Homo sapiens, UniProt Q9UQB9)	99.6%
Macrophage colony-stimulating factor 1 receptor (CSF1R, Homo sapiens, UniProt P07333)	93.6%
Ribosomal protein S6 kinase beta-1 (RPS6KB1, Homo sapiens, UniProt P23443)	89%

Set 4
Target: Calcium/calmodulin-dependent protein kinase type II subunit alpha (CAMK2A, Homo sapiens, UniProt Q9UQM7)
Chain of UniProt Q9UQM7 (whole entry, looked up): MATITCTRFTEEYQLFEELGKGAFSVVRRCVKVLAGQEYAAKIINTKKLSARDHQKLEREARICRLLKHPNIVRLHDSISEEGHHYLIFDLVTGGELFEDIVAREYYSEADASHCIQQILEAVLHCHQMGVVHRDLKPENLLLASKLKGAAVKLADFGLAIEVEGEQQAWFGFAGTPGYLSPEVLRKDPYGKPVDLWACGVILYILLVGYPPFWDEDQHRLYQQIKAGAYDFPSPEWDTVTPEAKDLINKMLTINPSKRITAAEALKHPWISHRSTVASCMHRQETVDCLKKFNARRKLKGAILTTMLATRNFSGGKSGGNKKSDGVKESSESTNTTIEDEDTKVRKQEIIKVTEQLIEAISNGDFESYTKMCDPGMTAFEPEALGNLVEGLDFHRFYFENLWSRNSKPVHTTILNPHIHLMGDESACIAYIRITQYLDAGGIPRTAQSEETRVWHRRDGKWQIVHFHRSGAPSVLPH
Effect on: enzyme activity
Action: inhibitor
Concentration: 10 µM
Compound	inhibition
COc1ccc(C(=O)N2CCCC2=O)cc1	-12%
C=C[C@H]1CN2CC[C@H]1C[C@H]2[C@H](O)c1ccnc2ccccc12	-15%
Cc1nccc2c1[nH]c1ccccc12	8%
CO[C@H]1CC[C@@H](O[C@H]2C[C@H]([C@]3(C)CC[C@]4(C[C@H](O)[C@@H](C)[C@@H]([C@@H](C)/C=C(\C)C(=O)[C@H](C)C[C@H](C)C(=O)O)O4)O3)O[C@]3(O[C@@H]([C@H]4O[C@@](O)(CO)[C@H](C)C[C@@H]4C)C[C@@H]3C)[C@@H]2C)O[C@@H]1C	-0.12% and -0.31%
CC[C@@]1(O)C(=O)OCc2c1cc1n(c2=O)Cc2cc3c(OC)cccc3nc2-1	-30%
NC(=O)CN1CC(O)CC1=O (centres unmarked)	-2%
C/C=C1/C[C@@H](C)[C@@](C)(O)C(=O)OCC2=CCN3CC[C@@H](OC1=O)[C@@H]23	0%
C[S@@+]([O-])CCCCN=C=S	15%
O=C1C=CC[C@@H]2[C@H]3CCC[N@+]4([O-])CCC[C@@H](CN12)[C@@H]34	-5%
c1csc(-c2ccc(-c3cccs3)s2)c1	-2%
CC[C@H]1C[C@H]2CN3CCc4c([nH]c5ccccc45)[C@](C(=O)OC)(C2)[C@H]13	-28%

Some of these lines once more (set 3):
target	remaining activity
Protein kinase C epsilon type (PRKCE, Homo sapiens, UniProt Q02156)	86.5%
Protein kinase C gamma type (PRKCG, Homo sapiens, UniProt P05129)	114%
Ephrin type-A receptor 7 (EPHA7, Homo sapiens, UniProt Q15375)	89.4%
Serine/threonine-protein kinase PAK 2 (PAK2, Homo sapiens, UniProt Q13177)	86.5%
Cytoplasmic tyrosine-protein kinase BMX (BMX, Homo sapiens, UniProt P51813)	92.3%
